Assay results collected from several papers.
Compare with care: the assays were run in different laboratories. ± marks the error that the study gave. In brackets after ≈: the same amount, converted by molar mass.
Organism: Pseudomonas aeruginosa

For `Cc1cc(O)c2c(c1)C(=O)c1cc3oc(=O)cc(-c4ccc(Cl)cc4)c3c(O)c1C2=O`, “zone of inhibition” read 8 mm (MTCC 2453; 100 µg/disc).
`C=C(CO)C(=O)O[C@H]1CC(=C)[C@@H]2C[C@H](O)[C@](O)(CCl)[C@@H]2[C@H]2OC(=O)C(=C)C12` (some centres unmarked) has an inhibition zone of 8 ± 1.3 mm (concentration not given).
Under “zone of inhibition”, `Cc1cc(O)c2c(c1)C(=O)c1cc3oc(=O)cc(C)c3c(O)c1C2=O` is recorded as < 8 mm (MTCC 2453; 100 µg/disc).
`O=C1CC(c2ccc(O)cc2)Oc2cc(O)cc([O][Ga+][O]c3cc(O)cc4c3C(=O)CC(c3ccc(O)cc3)O4)c21` (centres unmarked) gave a remaining biofilm of 10% (40 µM, day three, 48 h-old biofilm).
With `CCCCCCCCCC(=O)CC(=O)Nc1ccccc1` the elastase inhibition was ≥ 50% (elastin-Congo red; PAO1 wild type; 100 µM).
For `CC(=O)[O-].O.O.[O-]c1ccc(Br)cc1C=NCCN1CCOCC1.[Zn+2]`, “inhibition zone diameter” read 17 mm (20 µL of 100 µM per disc).
`CC[C@@H](C)[C@@H](NC(=O)[C@@H](C)NC(=O)[C@@H](CCCNC(=N)N)NC(=O)[C@@H](Cc1c[nH]c2ccccc12)NC(=O)[C@@H](CCC(N)=O)NC(=O)[C@H](N)C(C)C)C(=O)N[C@H](CCCNC(=N)N)C(=O)N[C@@H](C(=O)N[C@H](CCCNC(=N)N)C(=O)N[C@@H](C(=O)N[C@@H](C(=O)N[C@H](CCCNC(=N)N)C(N)=O)[C@H](C)CC)C(C)C)C(C)C` gave a biofilm dispersal of 100% (WST-8; PAO1; 32 µg/mL, 24 h, 37 °C, preformed biofilm).
Under “concentration for 100% biofilm dispersal”, `CC[C@H](C)[C@H](NC(=O)[C@H](Cc1c[nH]cn1)NC(=O)[C@H](CCCCNC(=O)[C@@H](NC(=O)[C@H](CCCCN)NC(=O)[C@H](Cc1ccccc1)NC(=O)[C@H](CCCCNC(=O)[C@H](CC(C)C)NC(=O)[C@@H]1CCCN1C(=O)[C@H](CCCCN)NC(=O)C[C@@H]1O[C@@H](C)[C@@H](O)[C@@H](O)[C@@H]1O)NC(=O)[C@H](CC(C)C)NC(=O)[C@@H]1CCCN1C(=O)[C@H](CCCCN)NC(=O)C[C@@H]1O[C@@H](C)[C@@H](O)[C@@H](O)[C@@H]1O)[C@@H](C)CC)NC(=O)[C@@H](NC(=O)[C@H](CCCCN)NC(=O)[C@H](Cc1ccccc1)NC(=O)[C@H](CCCCNC(=O)[C@H](CC(C)C)NC(=O)[C@@H]1CCCN1C(=O)[C@H](CCCCN)NC(=O)C[C@@H]1O[C@@H](C)[C@@H](O)[C@@H](O)[C@@H]1O)NC(=O)[C@H](CC(C)C)NC(=O)[C@@H]1CCCN1C(=O)[C@H](CCCCN)NC(=O)C[C@@H]1O[C@@H](C)[C@@H](O)[C@@H](O)[C@@H]1O)[C@@H](C)CC)C(N)=O` is recorded as 50 µM (PAO1).
`CC[C@@H](C)[C@@H](NC(=O)[C@@H](Cc1c[nH]c2ccccc12)NC(=O)[C@@H](CCCNC(=N)N)NC(=O)[C@H](N)CCCNC(=N)N)C(=O)N[C@H](CCCNC(=N)N)C(=O)N[C@@H](C(=O)N[C@H](C)C(=O)N[C@@H](C(=O)N[C@@H](C(=O)N[C@H](CC(C)C)C(=O)N[C@H](CCCNC(=N)N)C(=O)N[C@@H](C(N)=O)C(C)C)[C@H](C)CC)C(C)C)C(C)C` has a survival of 50 ± 8% (PAO1, Galleria mellonella larvae; proleg injection, 20 µg per larva, 24 h post infection, 37 °C, dosed 1 h after infection).
With `CNC1=C([N+](=O)[O-])C2(C(=O)Nc3ccccc32)C2=C(CCCC2=O)O1` (centres unmarked) the inhibition was 67.3% (growth; MTCC 2453; 250 µg/mL, 24 h).
For `COc1cc(OC)c2c(c1)C(=O)c1cc3oc(=O)cc(C)c3c(O)c1C2=O`, “zone of inhibition” read < 8 mm (MTCC 2453; 100 µg/disc).
For `CC(C)C[C@@H](NC(=O)[C@@H](CC(C)C)NC(=O)[C@@H](CCCCN)NC(=O)[C@@H](CCCCNC(=O)[C@@H](CC(C)C)NC(=O)[C@@H](CC(C)C)NC(=O)[C@@H](CCCCNC(=O)[C@@H](CC(C)C)NC(=O)[C@@H](CCCCN)NC(=O)[C@@H](CCCCNC(=O)[C@@H](CC(C)C)NC(=O)[C@H](N)CCCCN)NC(=O)[C@@H](CC(C)C)NC(=O)[C@H](N)CCCCN)NC(=O)[C@@H](CC(C)C)NC(=O)[C@@H](CCCCN)NC(=O)[C@@H](CCCCNC(=O)[C@@H](CC(C)C)NC(=O)[C@H](N)CCCCN)NC(=O)[C@@H](CC(C)C)NC(=O)[C@H](N)CCCCN)NC(=O)[C@@H](CC(C)C)NC(=O)[C@@H](CC(C)C)NC(=O)[C@@H](CCCCNC(=O)[C@@H](CC(C)C)NC(=O)[C@@H](CCCCN)NC(=O)[C@@H](CCCCNC(=O)[C@@H](CC(C)C)NC(=O)[C@H](N)CCCCN)NC(=O)[C@@H](CC(C)C)NC(=O)[C@H](N)CCCCN)NC(=O)[C@@H](CC(C)C)NC(=O)[C@@H](CCCCN)NC(=O)[C@@H](CCCCNC(=O)[C@@H](CC(C)C)NC(=O)[C@H](N)CCCCN)NC(=O)[C@@H](CC(C)C)NC(=O)[C@H](N)CCCCN)C(N)=O`, the MBIC was 8 µg/mL (biofilm formation; PAO1; 24 h, 37 °C).
The MBC of `CCCCCCCCCCCCCC(=O)N[C@@H](Cc1ccc2ccccc2c1)C(=O)N[C@@H](CCCCN)C(=O)N[C@@H](CCCCN)C(=O)N[C@@H](CCCCN)C(=O)N[C@@H](CCCCN)C(N)=O` is reported as 128 µg/mL (≈ 137 µM) (ATCC 27853).
`COc1ccc(-c2ccn(CC[C@](C)(C(=O)NO)S(C)(=O)=O)c(=O)c2)c(F)c1` — result for “free AUC/MIC for 1-log kill”: 7.25 (PA-1950, neutropenic mice, thigh infection; dose not given, 24 h).
Under “MIC of colistin”, `Oc1ccc(C(F)(F)F)cc1-c1nc2c(Cl)cc(Cl)cc2[nH]1` is recorded as 2 µg/mL (colistin potentiator; TRPA 162, colistin-resistant; 5 µM).
The inhibition zone of `COc1ccc(NC(=O)CSc2nc3ccccc3c(=O)n2-c2ccc(S(N)(=O)=O)cc2)cc1` is reported as 15 mm (microbial growth, well diffusion; ATCC27853; 500 µg/mL, 24 h).
`CC[C@@H](C)[C@@H](NC(=O)[C@@H](C)NC(=O)[C@@H](CCCCN)NC(=O)[C@@H](CC(C)C)NC(=O)[C@@H](C)NC(=O)[C@H](NC(=O)[C@@H](CCCCN)NC(=O)[C@@H](CC(C)C)NC(=O)[C@H](NC(=O)[C@@H](CCCCN)NC(=O)[C@@H](CCCCN)NC(=O)[C@@H](CCCCN)NC(=O)[C@@H](C)NC(=O)[C@@H](CCCCN)NC(=O)[C@@H](CO)NC(=O)[C@@H](Cc1ccccc1)NC(=O)[C@H](NC(=O)[C@@H](CCCCN)NC(=O)[C@@H](CC(C)C)NC(=O)[C@@H](Cc1ccccc1)NC(=O)[C@@H](CO)NC(=O)[C@@H](CCCCN)NC(=O)[C@@H](Cc1c[nH]c2ccccc12)NC(=O)[C@@H](CCCCN)NC(C)=O)[C@H](C)O)C(C)C)[C@H](C)O)C(=O)N[C@H](CO)C(=O)N[C@H](CCCCN)C(N)=O`: “MIC geometric mean” 1.6 µM (≈ 4.88 µg/mL) (six isolates; 24 h, 37 °C).
`CCc1ccccc1NC(=O)CSc1nc2ccccc2c(=O)n1-c1ccc(S(N)(=O)=O)cc1` has an inhibition zone of 25 mm (microbial growth, well diffusion; ATCC27853; 500 µg/mL, 24 h).
`CC[C@H](C)[C@H](NC(=O)[C@H](Cc1c[nH]cn1)NC(=O)[C@H](CCCCNC(=O)[C@@H](NC(=O)[C@H](CCCCN)NC(=O)[C@H](CCCCNC(=O)[C@H](CC(C)C)NC(=O)[C@@H]1CCCN1C(=O)[C@H](CCCCN)NC(=O)CSCCCCCCO[C@H]1O[C@@H](C)[C@@H](O)[C@@H](O)[C@@H]1O)NC(=O)[C@H](CC(C)C)NC(=O)[C@@H]1CCCN1C(=O)[C@H](CCCCN)NC(=O)CSCCCCCCO[C@H]1O[C@@H](C)[C@@H](O)[C@@H](O)[C@@H]1O)[C@@H](C)CC)NC(=O)[C@@H](NC(=O)[C@H](CCCCN)NC(=O)[C@H](CCCCNC(=O)[C@H](CC(C)C)NC(=O)[C@@H]1CCCN1C(=O)[C@H](CCCCN)NC(=O)CSCCCCCCO[C@H]1O[C@@H](C)[C@@H](O)[C@@H](O)[C@@H]1O)NC(=O)[C@H](CC(C)C)NC(=O)[C@@H]1CCCN1C(=O)[C@H](CCCCN)NC(=O)CSCCCCCCO[C@H]1O[C@@H](C)[C@@H](O)[C@@H](O)[C@@H]1O)[C@@H](C)CC)C(N)=O` — result for “concentration for 100% biofilm dispersal”: 20 µM (PAO1; with: tobramycin 0.1 µM).
`CCCCCCCCCCCCCCCC(=O)N[C@@H](CCCCN)C(=O)N[C@@H](CCCCN)C(=O)N[C@@H](CCCCN)C(=O)N[C@@H](CCCCN)C(=O)N[C@@H](Cc1c[nH]cn1)C(N)=O` has an MBC of 128 µg/mL (≈ 141 µM) (ATCC 27853).
`O=[N+]([O-])c1ccc(CSc2nnc(C34CC5CC(CC(C5)C3)C4)n2-c2ccccc2)cc1`: “inhibition zone diameter” < 10 mm (IFO 3448; 200 µg/disc, 24 h, 37 °C).
`CC[C@@H](C)[C@@H](NC(=O)[C@@H](C)NC(=O)[C@@H](CCCCN)NC(=O)[C@@H](CC(C)C)NC(=O)[C@@H](CC(C)C)NC(=O)[C@H](NC(=O)[C@@H](CCCCN)NC(=O)[C@@H](CC(C)C)NC(=O)[C@@H](C)NC(=O)[C@@H](CCCCN)NC(=O)[C@@H](CCCCN)NC(=O)[C@@H](CCCCN)NC(=O)[C@@H](C)NC(=O)[C@@H](CCCCN)NC(=O)[C@@H](CO)NC(=O)[C@@H](Cc1ccccc1)NC(=O)[C@H](NC(=O)[C@@H](CCCCN)NC(=O)[C@@H](CC(C)C)NC(=O)[C@@H](Cc1ccccc1)NC(=O)[C@@H](CO)NC(=O)[C@@H](CCCCN)NC(=O)[C@@H](Cc1c[nH]c2ccccc12)NC(=O)[C@@H](CCCCN)NC(C)=O)[C@H](C)O)[C@H](C)O)C(=O)N[C@H](CO)C(=O)N[C@H](CCCCN)C(N)=O`: “MIC geometric mean” 2.3 µM (≈ 7.05 µg/mL) (six isolates).
Under “inhibition zone diameter”, `Cn1c(SCCN2CCCC2)nnc1C12CC3CC(CC(C3)C1)C2` is recorded as < 10 mm (IFO 3448; 200 µg/disc, 24 h, 37 °C).
`CCCCCCCCCc1nc2cc(Cl)ccc2c(=O)n1CCCN`: “reduction in biofilm formation” ~50% (confocal microscopy; PAO1, RPMI; 100 µM, 24 h).
For `Cc1cccc2c3c(ccc12)C(=O)C1=C(OC[C@H]1C)C3=O`, the EC50 was 12.5 µM (LDH release; J774.A1, PAO1; relative to: mock-treated infected cells).
The inhibition zone of `CCOC(=O)c1sc(N/N=C/c2c(-c3ccc(C)cc3)nc3ncccn23)nc1C` is reported as 21 mm (microbial growth, well diffusion; ATCC27853; 100 µg/mL).
For `Cn1c(SCCN2CCCCC2)nnc1C12CC3CC(CC(C3)C1)C2`, “inhibition zone diameter” read < 10 mm (IFO 3448; 200 µg/disc, 24 h, 37 °C).
With `O=c1cc(-c2ccccc2)oc2cc(O)cc([O][Ga+][O]c3cc(O)cc4oc(-c5ccccc5)cc(=O)c34)c12` the IC50 was 1.52 µg/mL (bacterial viability).
For `CC[C@@H](C)[C@@H](NC(=O)[C@@H](C)NC(=O)[C@@H](CCCCN)NC(=O)[C@@H](CC(C)C)NC(=O)[C@@H](C)NC(=O)[C@H](NC(=O)[C@@H](Cc1c[nH]cn1)NC(=O)[C@@H](CC(C)C)NC(=O)[C@H](NC(=O)[C@H](NC(=O)[C@@H](CCCCN)NC(=O)[C@H](NC(=O)[C@@H](C)NC(=O)[C@@H](CO)NC(=O)[C@@H](CCCCN)NC(=O)[C@@H](Cc1ccccc1)NC(=O)[C@H](NC(=O)[C@@H](CCCCN)NC(=O)[C@@H](CC(C)C)NC(=O)[C@@H](Cc1ccccc1)NC(=O)[C@@H](CO)NC(=O)[C@@H](CCCCN)NC(=O)[C@@H](Cc1c[nH]c2ccccc12)NC(=O)[C@@H](CCCCN)NC(C)=O)[C@H](C)O)C(C)C)[C@H](C)O)C(C)C)[C@H](C)O)C(=O)N[C@H](CO)C(=O)N[C@H](CO)C(N)=O`, “MIC geometric mean” read 1.8 µM (≈ 5.33 µg/mL) (six isolates; 24 h, 37 °C).

Excerpt of the above:
For `CC(=O)[O-].O.O.[O-]c1ccc(Br)cc1C=NCCN1CCOCC1.[Zn+2]`, “inhibition zone diameter” read 17 mm (20 µL of 100 µM per disc).
`CC[C@@H](C)[C@@H](NC(=O)[C@@H](C)NC(=O)[C@@H](CCCNC(=N)N)NC(=O)[C@@H](Cc1c[nH]c2ccccc12)NC(=O)[C@@H](CCC(N)=O)NC(=O)[C@H](N)C(C)C)C(=O)N[C@H](CCCNC(=N)N)C(=O)N[C@@H](C(=O)N[C@H](CCCNC(=N)N)C(=O)N[C@@H](C(=O)N[C@@H](C(=O)N[C@H](CCCNC(=N)N)C(N)=O)[C@H](C)CC)C(C)C)C(C)C` gave a biofilm dispersal of 100% (WST-8; PAO1; 32 µg/mL, 24 h, 37 °C, preformed biofilm).
